Measurements from different studies.
Cell line: BEAS-2B
Method: MTT

SMILES | effect on | time | quantity | value
COc1ccccc1/C=C1\C(=O)Nc2ccc(Nc3nc(C)nc4ccccc34)cc21 | cell growth or viability |  | IC50 | 6.84 µM
CCOC(=O)c1cc(C)n(CO)n1 | cell viability | 24 h | IC50 | > 800 µM
COc1ccccc1/C=C1\C(=O)N(C)c2ccc(N(C)c3nc(C)nc4ccccc34)cc21 | cell growth or viability |  | IC50 | 9.76 µM
Nc1ccc[n+]([Pt-2]([Cl])([Cl])[n+]2cccc(N)c2Cl)c1Cl | cell viability | 48 h | IC25 | 50.7 µM
Cc1nc(N(C)c2ccc3c(c2)/C(=C/c2ccccc2)C(=O)N3C)c2ccccc2n1 | cell growth or viability |  | IC50 | 6.63 µM
Cc1cc(C)[nH]n1 | cell viability | 24 h | IC50 | > 800 µM
CC(=O)[O][Pd][c]1cc(Cl)ccc1N1N=C(C)C(C)(C)C1=O.CC(=O)[O][Pd][c]1cc(Cl)ccc1N1N=C(C)C(C)(C)C1=O | cell growth or viability | 24 h | IC50 | > 100 µM
Cc1cc(C)n(CO)n1 | cell viability | 24 h | IC50 | > 800 µM
CC(=O)[O][Pd][c]1cc(C)ccc1N1N=C(C)C(C)(C)C1=O.CC(=O)[O][Pd][c]1cc(C)ccc1N1N=C(C)C(C)(C)C1=O | cell growth or viability | 24 h | IC50 | > 100 µM

A few entries again:
SMILES | effect on | time | quantity | value
CC(=O)[O][Pd][c]1cc(C)ccc1N1N=C(C)C(C)(C)C1=O.CC(=O)[O][Pd][c]1cc(C)ccc1N1N=C(C)C(C)(C)C1=O | cell growth or viability | 24 h | IC50 | > 100 µM
